# Assay results of several laboratories.
# Each numbered part is a random draw from the data of one study; scales do not carry over between parts. Values joined by “and” are separate records of one study, mostly repeats; a detail may differ. pEC50: −log10 of the molar value.

# Series 1 — medium: EL4 tumour; dose: dose not given; reference: vehicle
# SMILES: CC(=O)N[C@@H](Cc1c[nH]c2ccccc12)C(=O)N[C@@H](CCC(=O)C=[N+]=[N-])C(=O)OC(C)C
test,test system,fold change
measured: UDP-glucose,"mouse, EL4 tumour-bearing",0.35
measured: S-lactoylglutathione,"mouse, EL4 tumour-bearing",0.466
"metabolomics, measured: cytidine 2'-monophosphate",mouse,3.12
measured: 4-hydroxyglutamate,"mouse, EL4 tumour-bearing",0.453
measured: phenyllactate,"mouse, EL4 tumour-bearing",0.414
measured: indolelactate,"mouse, EL4 tumour-bearing",0.38
measured: ADP,"mouse, EL4 tumour-bearing",2.1
measured: 3'-AMP,"mouse, EL4 tumour-bearing",3.15

# Series 2 — mode: agonist
# Target: Beta-1 adrenergic receptor (ADRB1, Homo sapiens, UniProt P08588)
# UniProt P08588, sequence (whole entry, looked up): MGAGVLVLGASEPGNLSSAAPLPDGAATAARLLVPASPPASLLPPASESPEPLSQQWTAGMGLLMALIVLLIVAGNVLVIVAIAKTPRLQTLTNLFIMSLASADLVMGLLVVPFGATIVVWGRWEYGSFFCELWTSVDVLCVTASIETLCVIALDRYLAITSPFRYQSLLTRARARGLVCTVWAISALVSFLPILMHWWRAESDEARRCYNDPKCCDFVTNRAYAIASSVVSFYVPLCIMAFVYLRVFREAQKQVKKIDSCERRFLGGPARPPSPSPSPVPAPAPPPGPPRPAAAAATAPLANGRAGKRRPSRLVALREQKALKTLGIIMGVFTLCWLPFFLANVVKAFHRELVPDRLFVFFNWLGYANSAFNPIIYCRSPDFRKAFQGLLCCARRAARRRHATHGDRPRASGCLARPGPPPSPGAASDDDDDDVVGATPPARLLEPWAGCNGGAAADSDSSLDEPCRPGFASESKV
SMILES,pEC50
c1ccc(-c2n[nH]c3ncc(-c4cn[nH]c4)nc23)cc1,≤ 4.00
O=C(Nc1cccc(-c2ccc(N3CCOCC3)nn2)c1)Nc1ccccc1Cl,≤ 4.00
Cc1cc(=O)oc2cc(NC(=O)[C@H](CCC(=O)O)NC(=O)[C@H](CC(C)C)NC(=O)[C@H](CC(C)C)NC(=O)OCc3ccccc3)ccc12,≤ 4.00
Cc1noc2c(-c3cccnc3NCCCn3ccnc3)cc(-c3ccccc3)nc12,≤ 4.00
Fc1ccc(-c2nnc3ccc(N4CCc5ccccc5CC4)nn23)nc1,≤ 4.00
O=c1c2nc(-c3ccc4c(c3)OCO4)ccc2ncn1-c1ccc(F)cc1F,≤ 4.00
O=C1COCC2(CN(c3cnccn3)C2)CN1c1cccnc1,5.35
COC(=O)CCC(=O)N[C@@H](C)C(=O)N[C@@H](C)C(=O)N1CCC[C@H]1C(=O)N[C@H](C(=O)Nc1ccc2c(C)cc(=O)oc2c1)C(C)C,≤ 4.00

# Further values, each from its own experiment
Compound,target or system,test,test system,conditions,measurement,result
CC[C@H](C)c1nc2cc(Nc3ccnc4ccc(S(=O)(=O)C(C)C)cc34)ccc2s1.Cl,HT-29,"necroptosis protection, CCK-8",,"0.313 µM, with: TNF-α SMAC mimetic zVAD",viability,18.4% and 19% and 12.1% and 19.6%
CC(C)n1cnc(-c2ccc(F)cc2)c1-c1ncc(C(=O)Nc2ccc(N3CCN(C)CC3)cc2)[nH]1,,,"human, idiopathic pulmonary fibrosis","30 mg once daily, trial, treatment-emergent",patients with Paronychia,0%
